Published values collected from several papers.
Lines come from different studies, so protocols differ. ± marks the error that the study gave.

`C=C1CCC(O)C(C)=CCC2C1CC2(C)O` (stereo not shown) gave an IC50 of over 50 µM (KPC; cell viability, CCK-8; 72 h).
For `Cc1cnc2c(ccc3c(C)c(C)cnc32)c1C.O=C([O-])Cc1ccccc1Nc1c(Cl)cccc1Cl.O=C([O-])Cc1ccccc1Nc1c(Cl)cccc1Cl.[Mn+2]`, the IC50 was 0.137 ± 0.015 µM (HMLER-shEcad; MTT; 72 h).
For `Cc1cc(C)c(-n2c3c([n+](-c4c(C)cc(C)cc4C)[c]2[Cu-][Cl])-c2cccc4cccc-3c24)c(C)c1`, the IC50 was 1.3 µM (CHO; cell growth or viability, MTT; 72 h).
The IC50 of `COc1cc2c(cc1C(C)(C)O)CCC1C(C)(C)c3nc(C)ncc3C[C@]21C` (mixture of isomers) is reported as over 200 µM (NCM460; cell growth or viability, SRB; 24 h).
`CCC(C)C1OC(=O)C(C)(C)C(=O)C(Cc2ccccc2)OC(=O)C(C(C)C)OC(=O)C(NC(=O)c2cccc(O)c2)C(C)OC1=O` (stereo not shown) gave an IC50 of 17.1 ± 0.433 µM (SGC-7901; cell viability, CCK-8; 72 h).
`CCCCSc1nc(N)c2c(F)c(F)c(C#N)c(F)c2n1` gave an IC50 of 21 µM (SGC-7901; cell growth or viability, MTT; 96 h).
With `O=c1[nH]c(=O)n([C@@H]2O[C@H](CSSc3ccccn3)[C@@H](O)[C@H](F)[C@H]2O)cc1F` the IC50 was 35 µM (FM3A; cell growth or viability).
`N=C(N)Nc1nc2ccccc2s1` gave an IC50 of over 500 µM (BPH-1; cell growth or viability, MTT; 24 h).
`CN1CCC(S(=O)(=O)NC23CCCC(C)(CCC4C2CC4(C)C)C3)CC1` (stereo not shown) gave an IC50 of 23.7 µM (NCM460; cell growth or viability, CCK-8; 72 h).
The IC50 of `CC(C)=CCC1=C([O-])C(=O)c2ccccc2C1=O.CC(C)=CCC1=C([O-])C(=O)c2ccccc2C1=O.[Cu+2].c1ccc(-c2ccnc3c2ccc2c(-c4ccccc4)ccnc23)cc1` is reported as 1.4 ± 0.4 µM (HOS; cell viability, MTT; 24 h).
The IC50 of `N#Cc1cccc(-c2ccc(=O)n(Cc3cccc(-c4ncc(OCC5CCN(CC(=O)N6CCN(CCNc7ccc8c(c7)C(=O)N(C7CCC(=O)NC7=O)C8=O)CC6)CC5)cn4)c3)n2)c1` (stereo not shown) is reported as 0.00388 µM (Hs746T; cell growth or viability, CCK-8; 72 h).
For `COC1CCC(Nc2nc(-c3nccn3C)nc3sc(-c4ccn(C)n4)c(-c4ccccc4)c23)C1` (stereo not shown), the IC50 was about 7 µM (PANC-1 (KRAS G12D); Western blot, refers to: phospho-Akt; 6 h, together with: EGF 15 min).
The IC50 of `C#Cc1cc(C(=O)C2=C(C)C(=O)c3ccccc3C2=O)ccc1C(F)(F)F` is reported as 25.8 µM (MRC-5; cytotoxicity).
The IC50 of `COC(=O)[C@H]1[C@H]2C[C@H]3O[C@@]4(CCN3C[C@H]2C[C@@H](OC(=O)c2cc(OC)c(OC)c(OC)c2)[C@@H]1OC)C(=O)Nc1cc(OC)c(Br)cc14` is reported as 19.2 µM (SUP-T1; cell growth or viability, trypan blue; 72 h).
With `COCCOCCSc1nc(N)c2c(F)c(C#N)c(F)c(Cl)c2n1` the IC50 was 5.84 µM (SGC-7901; cell growth or viability, MTT; 96 h).
The IC50 of `O=C1CCC(N2C(=O)c3cccc(NCC(=O)N4CCN(c5ccc(Nc6nccc(Oc7ccccc7)n6)cc5)CC4)c3C2=O)C(=O)N1` (stereo not shown) is reported as 0.077 µM (Mino; 72 h).
For `CC/C(=C(\c1ccc(O)cc1)c1ccc(OCCN(C)CCOCCOCCOCCOCCOCCN(C)CCOc2ccc(/C(=C(/CC)c3ccccc3)c3ccc(O)cc3)cc2)cc1)c1ccccc1`, the IC50 was 1.2 µM (MDA-MB-231 (ER-negative); cell growth; 96 h).
For `COCCSc1nc(N)c2c(F)c(C#N)c(F)c(Cl)c2n1`, the IC50 was 7.34 µM (SGC-7901; cell growth or viability, MTT; 96 h).
`O=c1[nH]c(=O)n([C@@H]2O[C@H](CSSC[C@H]3O[C@@H](n4cc(F)c(=O)[nH]c4=O)[C@H](O)[C@@H](F)[C@@H]3O)[C@@H](O)[C@H](F)[C@H]2O)cc1F` gave an IC50 of 71 µM (FM3A; cell growth or viability).
With `COc1ccc(-c2cc(=O)c3c(O)cc(O[C@@H]4O[C@H](CO)[C@@H](O)[C@H](O)[C@H]4O)cc3o2)cc1OC` the IC50 was 27.3 ± 3 µM (U87MG.ΔEGFR glioblastoma; cytotoxicity, resazurin reduction; 72 h).
`CC1=CC2(C)C(=C(C)C3C4CC(C)CC(C)C4C4Oc5ccc(cc5)CC5(O)NC(=O)C(=C(O)C2C43)C5Nc2ncnc3c2ncn3C2OC(CO)C(O)C2O)C1C` (stereo not shown) gave an IC50 of 3.3 µM (Ramos; cell growth or viability, resazurin; 72 h).
`COC(=O)[C@H]1[C@H]2C[C@H]3O[C@@]4(CCN3C[C@H]2C[C@@H](OC(=O)c2cc(OC)c(OC)c(OC)c2)[C@@H]1OC)C(=O)Nc1cc(OC)c(-c2ccc(C)cc2)cc14` gave an IC50 of 4.72 µM (SUP-T1; cell growth or viability, trypan blue; 72 h).
For `N#Cc1c(-c2ccc(Cl)cc2)cc(-c2cccc3ccccc23)nc1NNC(=O)Cc1ccccc1`, the IC50 was 0.422 µM (U-937; cell growth or viability, MTT; 72 h).
`N#Cc1cccc(-c2ccc(=O)n(Cc3cccc(-c4ncc(OCC5CCN(CCCCCCCC(=O)Nc6cccc7c6C(=O)N(C6CCC(=O)NC6=O)C7=O)CC5)cn4)c3)n2)c1` (stereo not shown) has an IC50 of 0.159 µM (Hs746T; cell growth or viability, CCK-8; 72 h).
`C=C1CC[C@@H]2O[C@@]2(C)CC[C@H]2[C@H]1C[C@]2(C)C(=O)/C=C/C(C)(O)COC(C)=O` (stereo partly shown) gave an IC50 of 7.67 ± 0.39 µM (KPC; cell viability, CCK-8; 72 h).
The IC50 of `CC(=O)Nc1ccc(/C=C/c2nc3ccc(Br)cc3nc2/C=C/c2ccc(NC(C)=O)cc2)cc1` is reported as 9.29 µM (Hs68; cell growth or viability, MTT).
For `Cc1cc(C#N)cc(C)c1Oc1cc(Nc2ccc(C#N)cn2)nc2cnccc12`, the IC50 was over 127 µM (H69AR (multidrug resistant); 48 h).
`N#Cc1cccc(-c2ccc(=O)n(Cc3cccc(-c4ncc(OCC5CCN(CCCCC(=O)Nc6ccc7c(c6)C(=O)N(C6CCC(=O)NC6=O)C7=O)CC5)cn4)c3)n2)c1` (stereo not shown) has an IC50 of 0.00721 µM (Hs746T; cell growth or viability, CCK-8; 72 h).
For `CCCC(CCC)C(=O)[O][Pt]1([OH])[O]C(=O)C(=O)[O]1.NC1CCCCC1N`, the IC50 was 40.7 µM (seven cancer cell lines; cytotoxicity; mean over panel).
With `O=C(/C=C/c1ccc2c(c1)C(=O)N(CCCc1ccccc1)CC2)NO` the IC50 was 4.01 ± 0.9 µM (T24; cell growth, SRB; 72 h).
`COc1cc2ncnc(Nc3ccc(F)c(Cl)c3)c2cc1NC(=O)/C=C/CN(C)C` gave an IC50 of under 0.001 µM (HCC827; cell growth or viability, SRB; 72 h).
`COC(=O)CCC(=O)[O][Pt-2]1([OH])([Cl])([Cl])[NH2+]CC[N+]1(C)C` has an IC50 of 30.4 µM (SW1573; cell growth or viability; 96 h).
The IC50 of `Nc1ncnc2c1ncn2[C@@H]1O[C@H](CSSc2ccccn2)[C@@H](O)[C@H](F)[C@H]1O` is reported as at least 500 µM (FM3A; cell growth or viability).
`CCNc1ccc(-c2nc3cc(OCCF)ccc3n3cccc23)cc1` gave an IC50 of 10.9 ± 5.6 µM (HEK293 DR-GFP reporter; homologous recombination, inhibitor; 48 h).
For `O=C(O)/C(Cc1ccccc1[N+](=O)[O-])=N/Nc1nc2c(s1)CS(=O)(=O)c1cc(Cl)c(Cl)cc1-2`, the IC50 was over 20 µM (CRL-2351; cell growth, sulforhodamine B; 5 days).
`COC(=O)c1ccc(-n2nc(C(F)(F)F)cc2-c2cc(OC)c(OC)c(OC)c2)cc1` has an IC50 of 14.7 ± 0.3 µM (EMT6/AR1 multidrug-resistant; cell proliferation, sulforhodamine B).
`CC(=O)Oc1ccccc1C(=O)[O][Pt]([NH2])([NH2])([Cl])([Cl])[O]C(=O)C(Cl)Cl` has an IC50 of 0.7 µM (six human cancer lines; cytotoxicity, MTT).
With `N#Cc1cccc(-c2ccc(=O)n(Cc3cccc(-c4ncc(OCC5CCN(CCCCC(=O)Nc6cccc7c6C(=O)N(C6CCC(=O)NC6=O)C7=O)CC5)cn4)c3)n2)c1` (stereo not shown) the IC50 was 0.0763 µM (Hs746T; cell growth or viability, CCK-8; 72 h).
For `Cc1cc(C=O)cc(C)c1Oc1cc(Nc2ccc(C#N)cc2)nc2ccncc12`, the IC50 was over 127 µM (H69AR (multidrug resistant); 48 h).
`CC(=O)NCCCN(C)CCCNc1cccc2c1C(=O)c1cccc(NCCCN(C)CCCNC(C)=O)c1C2=O` gave an IC50 of 5.4 µM (ASF-4-4L2; cell proliferation, CCK-8; 48 h).
`CC(=O)Oc1c2c(c3ccc4c(c3c1OC(C)=O)C=CC(=O)C4(C)C)OC[C@@H]2C` gave an IC50 of 7.16 µM (mouse Neutrophil; cell growth or viability, CCK-8; 24 h).
With `COc1ccc(-c2nnc(-c3ccccn3)[nH]2)cc1OC` the IC50 was over 100 µM (T24; cell growth or viability, MTT; 24 h).
With `CCN(CC)CCN1C(=O)c2ccc3c4cccc5c(NCCN)ccc(c6ccc(c2c36)C1=O)c54` the IC50 was 3.1 to 7.4 µM (A549, PC-3, HL-60; cytotoxicity, SRB; 72 h, range over three lines).
The IC50 of `C=CC(=O)N1C[C@H](C)N(c2nc(OC[C@@]34CCCN3C[C@H](F)C4)nc3c(F)c(-c4ccc(F)c5sc(N)c(C#N)c45)c(C(F)(F)F)cc23)C[C@H]1C` is reported as over 10 µM (A-375 (BRAF V600E); 3D cell viability; 7 days).
With `COc1cc(/C=C/C(=O)/C=C(O)/C=C/c2ccc(OCC(=O)N3CCOCCOCCOCC3)c(OC)c2)ccc1OCC(=O)N1CCOCCOCCOCC1` the IC50 was 12.7 µM (SK-LU-1; cell growth or viability, SRB).
The IC50 of `CC(C)Cc1ccc(C(C)C(=O)[O][Pt]([NH2])([NH2])([Cl])([Cl])[O]C(=O)CCCc2ccccc2)cc1` (stereo not shown) is reported as 1.46 µM (six human cancer lines; cytotoxicity, MTT).
For `CC/C(=C(\c1ccc(O)cc1)c1ccc(OCCN(C)CCOCCOCCOCCOCCN(C)CCOc2ccc(/C(=C(/CC)c3ccccc3)c3ccc(O)cc3)cc2)cc1)c1ccccc1`, the IC50 was 1.23 µM (MDA-MB-231 (ER-negative); cell growth; 96 h).
With `O=C(O)/C(Cc1ccccc1[N+](=O)[O-])=N/Nc1nc2c(s1)CS(=O)(=O)c1c-2ccc(Cl)c1Cl` the IC50 was over 20 µM (CRL-2351; cell growth, sulforhodamine B; 5 days).
`CC12CCCC(NS(=O)(=O)C3CCN(Cc4ccccc4)C3)(C1)C1CC(C)(C)C1CC2` (stereo not shown) has an IC50 of 43.7 µM (NCM460; cell growth or viability, CCK-8; 72 h).
For `CN1CCN(c2ccc(Nc3ncc(Cl)c(Nc4ccccc4P(C)(C)=O)n3)cc2Br)CC1`, the IC50 was 0.09 µM (BaF3 EGFR 19del/T790M; cell growth, inhibitor, CCK-8; 72 h).
`COc1ccc(C[C@H]2COC(=O)[C@@H]2Cc2ccc(OCCCCCCCC(=O)NO)c(OC)c2)cc1OC` has an IC50 of 2.27 µM (KU812; cell growth or viability, CCK-8; 48 h).
The IC50 of `CCC1=C(CC)C2=[N+]3C1=Cc1c(CC)c(CC)c4[n]1[Ir-3]31([c]3n(C(C)C)cc[n+]3C(C)C)([c]3n(C(C)C)cc[n+]3C(C)C)[n]3c(c(CC)c(CC)c3=CC3=[N+]1C(=C4)C(CC)=C3CC)=C2.F[P-](F)(F)(F)(F)F` is reported as 0.69 µM (HCC827; cell growth or viability, MTT; 72 h).

Repeated from above:
With `O=C(/C=C/c1ccc2c(c1)C(=O)N(CCCc1ccccc1)CC2)NO` the IC50 was 4.01 ± 0.9 µM (T24; cell growth, SRB; 72 h).
`COc1cc2ncnc(Nc3ccc(F)c(Cl)c3)c2cc1NC(=O)/C=C/CN(C)C` gave an IC50 of under 0.001 µM (HCC827; cell growth or viability, SRB; 72 h).
`COC(=O)CCC(=O)[O][Pt-2]1([OH])([Cl])([Cl])[NH2+]CC[N+]1(C)C` has an IC50 of 30.4 µM (SW1573; cell growth or viability; 96 h).
The IC50 of `Nc1ncnc2c1ncn2[C@@H]1O[C@H](CSSc2ccccn2)[C@@H](O)[C@H](F)[C@H]1O` is reported as at least 500 µM (FM3A; cell growth or viability).
`CCNc1ccc(-c2nc3cc(OCCF)ccc3n3cccc23)cc1` gave an IC50 of 10.9 ± 5.6 µM (HEK293 DR-GFP reporter; homologous recombination, inhibitor; 48 h).
For `O=C(O)/C(Cc1ccccc1[N+](=O)[O-])=N/Nc1nc2c(s1)CS(=O)(=O)c1cc(Cl)c(Cl)cc1-2`, the IC50 was over 20 µM (CRL-2351; cell growth, sulforhodamine B; 5 days).
`COC(=O)c1ccc(-n2nc(C(F)(F)F)cc2-c2cc(OC)c(OC)c(OC)c2)cc1` has an IC50 of 14.7 ± 0.3 µM (EMT6/AR1 multidrug-resistant; cell proliferation, sulforhodamine B).
`CC(=O)Oc1ccccc1C(=O)[O][Pt]([NH2])([NH2])([Cl])([Cl])[O]C(=O)C(Cl)Cl` has an IC50 of 0.7 µM (six human cancer lines; cytotoxicity, MTT).
With `N#Cc1cccc(-c2ccc(=O)n(Cc3cccc(-c4ncc(OCC5CCN(CCCCC(=O)Nc6cccc7c6C(=O)N(C6CCC(=O)NC6=O)C7=O)CC5)cn4)c3)n2)c1` (stereo not shown) the IC50 was 0.0763 µM (Hs746T; cell growth or viability, CCK-8; 72 h).
